Published values gathered from unrelated publications.
Each line is one published result; not all experiments were run side by side. ± marks the error that the study gave.
OPRD1: Delta-type opioid receptor (OPRD1, Homo sapiens, UniProt P41143)

The chains behind the UniProt entries cited, without tags or fusion partners.
UniProt P41143, whole entry: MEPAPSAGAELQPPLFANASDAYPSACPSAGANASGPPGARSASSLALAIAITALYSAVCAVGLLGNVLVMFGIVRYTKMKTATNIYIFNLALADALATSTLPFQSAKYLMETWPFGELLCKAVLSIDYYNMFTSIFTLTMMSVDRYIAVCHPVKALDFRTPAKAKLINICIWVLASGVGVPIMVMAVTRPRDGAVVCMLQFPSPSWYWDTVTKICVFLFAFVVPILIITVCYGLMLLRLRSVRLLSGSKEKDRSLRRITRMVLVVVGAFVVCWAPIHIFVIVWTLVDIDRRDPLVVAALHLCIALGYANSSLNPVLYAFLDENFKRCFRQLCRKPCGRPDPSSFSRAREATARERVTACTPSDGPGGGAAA
UniProt Q8TF76, whole entry: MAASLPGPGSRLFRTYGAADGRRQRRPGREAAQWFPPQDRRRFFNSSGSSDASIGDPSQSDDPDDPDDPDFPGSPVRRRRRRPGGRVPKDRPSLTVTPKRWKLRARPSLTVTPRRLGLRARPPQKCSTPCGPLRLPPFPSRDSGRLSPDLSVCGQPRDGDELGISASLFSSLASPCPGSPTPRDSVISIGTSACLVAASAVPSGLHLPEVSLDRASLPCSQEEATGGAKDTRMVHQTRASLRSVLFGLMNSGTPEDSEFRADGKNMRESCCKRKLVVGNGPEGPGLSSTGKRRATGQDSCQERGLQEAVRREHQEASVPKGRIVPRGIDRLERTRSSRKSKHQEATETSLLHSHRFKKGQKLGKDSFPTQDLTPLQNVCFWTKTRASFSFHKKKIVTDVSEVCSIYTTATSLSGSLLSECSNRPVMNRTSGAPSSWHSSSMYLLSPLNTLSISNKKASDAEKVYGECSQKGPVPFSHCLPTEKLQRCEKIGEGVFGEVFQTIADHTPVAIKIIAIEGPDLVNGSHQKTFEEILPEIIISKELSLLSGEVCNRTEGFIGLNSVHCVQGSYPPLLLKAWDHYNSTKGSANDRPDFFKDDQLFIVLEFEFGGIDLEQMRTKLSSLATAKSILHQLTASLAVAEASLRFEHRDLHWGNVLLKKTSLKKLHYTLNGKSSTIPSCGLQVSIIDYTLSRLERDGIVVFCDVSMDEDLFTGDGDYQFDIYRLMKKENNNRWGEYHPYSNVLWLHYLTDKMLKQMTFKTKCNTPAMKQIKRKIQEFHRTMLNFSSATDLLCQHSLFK
UniProt P17948, whole entry, looked up: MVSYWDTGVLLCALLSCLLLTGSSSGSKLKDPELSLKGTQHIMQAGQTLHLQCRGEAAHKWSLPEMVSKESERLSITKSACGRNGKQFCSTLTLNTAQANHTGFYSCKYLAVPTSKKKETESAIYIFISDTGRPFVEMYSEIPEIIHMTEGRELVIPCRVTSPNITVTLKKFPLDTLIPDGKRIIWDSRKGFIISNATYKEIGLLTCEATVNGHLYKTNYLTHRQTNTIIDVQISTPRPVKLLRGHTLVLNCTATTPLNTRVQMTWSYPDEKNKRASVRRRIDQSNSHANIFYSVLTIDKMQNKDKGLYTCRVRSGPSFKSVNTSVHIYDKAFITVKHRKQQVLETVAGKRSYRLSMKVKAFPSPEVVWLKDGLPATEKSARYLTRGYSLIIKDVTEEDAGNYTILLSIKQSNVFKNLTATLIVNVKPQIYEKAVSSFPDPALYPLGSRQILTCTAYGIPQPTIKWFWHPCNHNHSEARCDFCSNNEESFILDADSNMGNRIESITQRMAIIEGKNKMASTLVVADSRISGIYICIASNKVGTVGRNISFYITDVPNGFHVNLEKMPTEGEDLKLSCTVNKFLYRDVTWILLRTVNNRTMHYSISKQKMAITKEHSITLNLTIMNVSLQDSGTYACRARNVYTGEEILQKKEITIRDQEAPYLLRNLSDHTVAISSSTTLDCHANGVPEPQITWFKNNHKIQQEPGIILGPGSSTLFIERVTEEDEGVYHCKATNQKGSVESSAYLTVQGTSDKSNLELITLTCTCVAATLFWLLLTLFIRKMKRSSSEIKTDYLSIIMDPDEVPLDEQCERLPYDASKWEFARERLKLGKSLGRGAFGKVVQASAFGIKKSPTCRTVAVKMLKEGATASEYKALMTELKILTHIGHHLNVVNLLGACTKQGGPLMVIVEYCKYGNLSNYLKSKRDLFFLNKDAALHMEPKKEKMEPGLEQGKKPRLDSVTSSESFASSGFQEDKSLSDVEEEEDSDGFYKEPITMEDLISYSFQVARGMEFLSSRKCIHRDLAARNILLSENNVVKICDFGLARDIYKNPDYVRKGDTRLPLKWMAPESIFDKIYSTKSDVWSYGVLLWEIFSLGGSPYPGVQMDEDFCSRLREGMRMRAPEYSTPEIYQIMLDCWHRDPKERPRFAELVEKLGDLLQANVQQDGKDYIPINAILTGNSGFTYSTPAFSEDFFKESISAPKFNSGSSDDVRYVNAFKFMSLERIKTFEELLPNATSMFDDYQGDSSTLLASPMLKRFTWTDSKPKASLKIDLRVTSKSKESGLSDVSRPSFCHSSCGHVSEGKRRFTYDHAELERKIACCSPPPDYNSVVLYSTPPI

| Compound | target | assay | system | conditions | scale | measurement | result |
| --- | --- | --- | --- | --- | --- | --- | --- |
| CCCN1CCN(c2ccc3c(c2)C2CC3CCN2C(=O)OCc2ccccc2)CC1 (stereo not shown) | OPRD1 | binding, radioligand binding | – | – | – | Ki | > 10000 nM |
| CO[C@]12CC[C@@]3(C[C@@H]1[C@](C)(O)CC(C)(C)c1ccccc1)[C@H]1Cc4ccc(O)c5c4[C@@]3(CCN1CC1CC1)[C@H]2O5 | OPRD1 | radioligand binding | CHO | added: [3H]Cl-DPDPE | – | Ki | 3.66 ± 0.92 nM |
| O=C1CC2CC(c3cccc(O)c3)(CCN2CCc2ccccc2)C1 (stereo not shown) | OPRD1 | binding | CHO cells expressing human DOR | added: [3H]DADLE | – | Ki | 3540 ± 273 nM |
| CN1CC[C@]23c4c5ccc(O)c4O[C@H]2[C@H](NC(=O)c2cccc(I)c2)CC[C@@]3(O)[C@H]1C5 | OPRD1 | radioligand binding, competition binding | CHO cells, transfected, cell membranes | added: [3H]DPDPE 1 nM | – | Ki | 70.8 ± 15.4 nM |
| CO[C@]12CC[C@@]3(C[C@@H]1[C@](C)(O)CC(C)(C)C)[C@H]1Cc4ccc(O)c5c4[C@@]3(CCN1CC1CC1)[C@H]2O5 | OPRD1 | radioligand binding | CHO | added: [3H]Cl-DPDPE | – | Ki | 1.27 ± 0.21 nM |
| CN1CC[C@]2(c3cccc(O)c3)C[C@H]3CCCC[C@@H]3[C@H]1C2 (relative stereo) | OPRD1 | binding | CHO cells expressing human DOR | exploratory, added: [3H]DADLE | – | Ki | 116 ± 2.87 nM |
| CCN1CCN(Cc2ccc(NC(=O)c3ccc(C)c(/C=C/c4cnc5[nH]ccc5c4OC)c3)cc2C(F)(F)F)CC1 | Serine/threonine-protein kinase haspin, with CDC37 (HASPIN, Homo sapiens, UniProt Q8TF76) | inhibitor, kinome profiling | human cells | 5 µM | baseline: vehicle | log2 fold change | 0.011 |
| CO[C@]12CC[C@@]3(C[C@@H]1[C@H](O)c1ccccc1)[C@H]1Cc4ccc(O)c5c4[C@@]3(CCN1CC1CC1)[C@H]2O5 | OPRD1 | G-protein activation, agonist | – | – | – | EC50 | 4.54 ± 0.58 nM |
| COCO[C@H]1C[C@@H](C(=O)OC)[C@]2(C)CC[C@H]3C(=O)O[C@H](c4ccoc4)C[C@]3(C)[C@H]2C1=O | OPRD1 | radioligand binding | CHO expressing OPRD1 | added: [3H]DADLE | – | Ki | 2840 ± 180 nM |
| CO[C@]12CC[C@@]3(C[C@@H]1[C@@](C)(O)C(C)(C)C)[C@H]1Cc4c(Cl)cc(O)c5c4[C@@]3(CCN1CC1CC1)[C@H]2O5 | OPRD1 | radioligand binding | CHO | added: [3H]Cl-DPDPE | – | Ki | 17.2 ± 0.26 nM |
| CC#C/C(=N\OC[C@H]1COCCN1)c1ccc2ncnc(Nc3ccc(OCc4cccc(F)c4)c(Cl)c3)c2c1 | FLT1 (Homo sapiens, UniProt P17948) | kinase activity | – | 10 µM | – | inhibition | 4.1% |
| N=C(N)NCC(=O)NCC1(Cc2ccccc2)CCN(Cc2ccccc2)CC1 | OPRD1 | binding | – | added: [3H]DPDPE | – | Ki | 2490 ± 200 nM |
| CC[C@@](O)(c1ccccc1)[C@H]1C[C@@]23CC[C@]1(OC)[C@@H]1Oc4c(O)ccc5c4[C@@]12CCN(CC1CC1)[C@@H]3C5 | OPRD1 | binding, radioligand displacement | CHO | added: [3H]DPDPE | – | Ki | 0.8 ± 0.05 nM |
